Published values of several laboratories.
Every numbered part comes from another study and shows a few of its results, in no order. Substitutions count along the parent as printed.
Chain of UniProt P10721 (whole entry, unmodified, looked up): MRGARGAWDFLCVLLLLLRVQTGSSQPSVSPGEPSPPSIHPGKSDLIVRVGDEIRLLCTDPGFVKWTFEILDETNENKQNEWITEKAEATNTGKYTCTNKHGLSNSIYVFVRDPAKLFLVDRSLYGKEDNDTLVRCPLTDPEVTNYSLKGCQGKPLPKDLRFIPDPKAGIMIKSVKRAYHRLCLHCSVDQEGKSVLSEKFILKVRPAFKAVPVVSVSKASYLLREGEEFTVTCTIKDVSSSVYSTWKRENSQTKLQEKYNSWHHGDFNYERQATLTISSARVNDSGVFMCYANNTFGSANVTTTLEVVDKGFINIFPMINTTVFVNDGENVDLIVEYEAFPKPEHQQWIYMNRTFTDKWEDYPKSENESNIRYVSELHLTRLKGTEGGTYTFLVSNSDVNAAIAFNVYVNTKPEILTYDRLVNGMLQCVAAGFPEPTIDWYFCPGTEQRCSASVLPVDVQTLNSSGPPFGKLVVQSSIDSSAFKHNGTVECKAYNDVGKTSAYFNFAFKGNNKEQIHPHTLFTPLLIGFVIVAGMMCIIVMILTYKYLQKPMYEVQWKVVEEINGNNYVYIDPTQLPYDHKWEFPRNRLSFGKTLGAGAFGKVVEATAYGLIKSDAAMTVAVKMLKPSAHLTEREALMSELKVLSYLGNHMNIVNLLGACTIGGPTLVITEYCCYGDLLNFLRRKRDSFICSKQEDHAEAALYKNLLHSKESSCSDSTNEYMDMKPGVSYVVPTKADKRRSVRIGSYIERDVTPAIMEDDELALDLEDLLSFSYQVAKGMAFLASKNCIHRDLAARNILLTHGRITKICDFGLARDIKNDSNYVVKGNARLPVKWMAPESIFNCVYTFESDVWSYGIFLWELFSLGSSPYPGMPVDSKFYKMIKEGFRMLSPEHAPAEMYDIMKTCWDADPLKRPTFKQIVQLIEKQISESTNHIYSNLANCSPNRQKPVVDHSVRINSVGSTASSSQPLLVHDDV
Chain of UniProt P42336 (whole entry, unmodified, looked up): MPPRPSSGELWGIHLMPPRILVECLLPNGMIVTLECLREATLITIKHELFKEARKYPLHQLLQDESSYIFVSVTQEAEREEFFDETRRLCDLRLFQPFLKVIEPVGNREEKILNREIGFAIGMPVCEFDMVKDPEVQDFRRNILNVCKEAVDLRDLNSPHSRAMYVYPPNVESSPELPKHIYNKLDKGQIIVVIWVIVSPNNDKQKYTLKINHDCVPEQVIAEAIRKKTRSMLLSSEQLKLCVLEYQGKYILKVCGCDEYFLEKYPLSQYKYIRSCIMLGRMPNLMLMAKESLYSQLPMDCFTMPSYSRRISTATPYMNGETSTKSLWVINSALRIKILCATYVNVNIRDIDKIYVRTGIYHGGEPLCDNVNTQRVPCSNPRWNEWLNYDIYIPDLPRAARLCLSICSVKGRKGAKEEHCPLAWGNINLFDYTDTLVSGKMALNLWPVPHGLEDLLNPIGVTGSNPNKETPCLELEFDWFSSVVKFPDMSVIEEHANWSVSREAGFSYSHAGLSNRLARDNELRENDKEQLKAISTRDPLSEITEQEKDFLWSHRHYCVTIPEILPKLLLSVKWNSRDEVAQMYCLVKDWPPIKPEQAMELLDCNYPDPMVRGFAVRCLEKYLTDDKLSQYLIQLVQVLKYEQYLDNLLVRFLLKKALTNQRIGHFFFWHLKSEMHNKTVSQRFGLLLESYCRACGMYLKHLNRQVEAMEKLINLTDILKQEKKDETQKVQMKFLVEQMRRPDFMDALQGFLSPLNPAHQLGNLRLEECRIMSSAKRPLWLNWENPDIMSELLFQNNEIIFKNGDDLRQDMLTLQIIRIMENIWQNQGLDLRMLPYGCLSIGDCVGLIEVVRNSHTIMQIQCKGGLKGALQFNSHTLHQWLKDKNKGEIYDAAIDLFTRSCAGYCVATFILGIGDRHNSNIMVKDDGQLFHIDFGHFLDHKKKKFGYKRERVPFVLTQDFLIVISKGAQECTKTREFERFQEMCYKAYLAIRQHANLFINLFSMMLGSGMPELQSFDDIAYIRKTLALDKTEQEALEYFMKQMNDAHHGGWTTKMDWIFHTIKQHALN
Chain of UniProt Q13976 (whole entry, looked up): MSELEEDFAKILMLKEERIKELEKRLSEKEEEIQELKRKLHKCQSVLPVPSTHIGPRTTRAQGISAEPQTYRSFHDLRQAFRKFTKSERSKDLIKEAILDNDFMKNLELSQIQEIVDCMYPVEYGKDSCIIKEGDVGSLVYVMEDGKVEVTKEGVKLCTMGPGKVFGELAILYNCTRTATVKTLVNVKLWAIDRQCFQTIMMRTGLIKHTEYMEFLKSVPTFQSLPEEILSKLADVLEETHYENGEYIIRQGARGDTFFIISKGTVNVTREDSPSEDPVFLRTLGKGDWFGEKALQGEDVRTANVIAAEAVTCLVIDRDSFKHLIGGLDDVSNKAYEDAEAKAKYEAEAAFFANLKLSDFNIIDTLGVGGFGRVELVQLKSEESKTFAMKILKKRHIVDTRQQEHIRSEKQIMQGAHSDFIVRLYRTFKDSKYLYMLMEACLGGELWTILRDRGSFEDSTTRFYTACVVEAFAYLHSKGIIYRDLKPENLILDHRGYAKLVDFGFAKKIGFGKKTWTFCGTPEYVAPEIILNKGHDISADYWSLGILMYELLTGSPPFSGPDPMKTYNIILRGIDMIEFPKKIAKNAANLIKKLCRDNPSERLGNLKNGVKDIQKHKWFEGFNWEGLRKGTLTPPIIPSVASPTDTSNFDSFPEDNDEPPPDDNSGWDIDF

Sample 1 — read-out: enzyme activity; action: inhibitor; concentration: 0.5 µM; relative to: control
Target: Protein-tyrosine kinase 2-beta (PTK2B, Homo sapiens, UniProt Q14289)
Chain of UniProt Q14289 (whole entry, looked up): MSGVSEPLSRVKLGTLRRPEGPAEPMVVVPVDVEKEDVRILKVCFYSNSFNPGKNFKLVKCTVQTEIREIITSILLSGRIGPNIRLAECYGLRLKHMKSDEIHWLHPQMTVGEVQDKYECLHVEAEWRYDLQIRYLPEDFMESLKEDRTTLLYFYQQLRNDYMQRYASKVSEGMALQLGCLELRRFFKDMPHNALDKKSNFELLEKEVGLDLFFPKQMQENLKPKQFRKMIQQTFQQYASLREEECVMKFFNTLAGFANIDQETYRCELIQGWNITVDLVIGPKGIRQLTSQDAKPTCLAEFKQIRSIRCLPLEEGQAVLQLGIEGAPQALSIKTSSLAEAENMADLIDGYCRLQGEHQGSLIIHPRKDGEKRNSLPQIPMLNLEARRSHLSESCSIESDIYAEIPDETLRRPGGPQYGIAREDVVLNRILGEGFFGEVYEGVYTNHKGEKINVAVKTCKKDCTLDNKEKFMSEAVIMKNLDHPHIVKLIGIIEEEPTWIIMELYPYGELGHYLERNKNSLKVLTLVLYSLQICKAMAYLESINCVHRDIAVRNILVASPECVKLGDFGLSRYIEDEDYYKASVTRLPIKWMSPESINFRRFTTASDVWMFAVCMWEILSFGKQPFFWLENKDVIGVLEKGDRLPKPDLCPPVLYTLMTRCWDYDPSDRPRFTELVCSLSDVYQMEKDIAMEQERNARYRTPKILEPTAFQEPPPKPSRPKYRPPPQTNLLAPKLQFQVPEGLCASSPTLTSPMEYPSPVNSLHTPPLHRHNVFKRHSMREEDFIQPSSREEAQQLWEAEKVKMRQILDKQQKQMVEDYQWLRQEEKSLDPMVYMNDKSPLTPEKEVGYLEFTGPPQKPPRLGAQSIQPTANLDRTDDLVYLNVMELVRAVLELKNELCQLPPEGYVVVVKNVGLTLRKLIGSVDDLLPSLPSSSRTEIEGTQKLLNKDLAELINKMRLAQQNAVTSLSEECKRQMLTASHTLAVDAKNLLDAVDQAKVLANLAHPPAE
Compound	remaining activity [%]
Oc1ccc(-c2nc(-c3ccncc3)c(-c3ccc(F)cc3)[nH]2)cc1	96.2
CN(C)c1ccc(C=C2C(=O)Nc3ccccc32)cc1	94.5
OCC(O)CCON=C1C(c2c(O)[nH]c3ccccc23)=Nc2ccccc21 (stereo not shown)	30.5
Nc1[nH]nc2nc3ccccc3nc12	92
Cn1c2ccccc2c2c3c(c4c5ccccc5n(CCC#N)c4c21)CNC3=O	26.7
Cc1ccc(NC(=O)c2ccc(CN3CCN(C)CC3)cc2)cc1Nc1nc(-c2cccnc2)cs1	98.9
CC(C)[C@H](CO)Nc1nc(Nc2cc(N)cc(Cl)c2)c2ncn(C(C)C)c2n1	63.6
COc1cc2ncnc(Nc3ccc(Oc4ccccc4)cc3)c2cc1OC	89
O=C(O)c1ccc2c3c1cccc3c(=O)n1c3ccccc3nc21	69.2
COc1ccc(CNC(=O)Nc2ncc([N+](=O)[O-])s2)cc1	83.1
O=C1NC(=O)C(c2cn(CCCn3ccnc3)c3ccccc23)=C1Nc1ccccc1	93.3
NCCNc1ncc(C(N)=O)c(Nc2cccc(C(F)(F)F)c2)n1	47.5
O=C(Nc1cccc(Nc2cc(Nc3cccc(C(F)(F)F)c3)ncn2)c1)C1CC1	89.6

Sample 2 — SMILES: CC(C)(O)c1cncc(-c2nc3ccc(F)cc3n2C2CC2)c1; read-out: cell-free assay; technique: competition with immobilised ligand; concentration: 1 µM
target	remaining binding
Ephrin type-A receptor 5 (EPHA5, Homo sapiens, UniProt P54756)	100%
Activated CDC42 kinase 1 (TNK2, Homo sapiens, UniProt Q07912)	100%
cGMP-dependent protein kinase 1 (PRKG1, Homo sapiens, UniProt Q13976)	78%
Serine/threonine-protein kinase TAO1 (TAOK1, Homo sapiens, UniProt Q7L7X3)	100%
Mitogen-activated protein kinase kinase kinase kinase 5 (MAP4K5, Homo sapiens, UniProt Q9Y4K4)	92%
Tyrosine-protein kinase ABL1, phosphorylated (ABL1, Homo sapiens, UniProt P00519, M351T)	100%
Phosphatidylinositol 4,5-bisphosphate 3-kinase catalytic subunit alpha isoform (PIK3CA, Homo sapiens, UniProt P42336, H1047Y)	90%
Citron Rho-interacting kinase (CIT, Homo sapiens, UniProt O14578)	100%
Mast/stem cell growth factor receptor Kit (KIT, Homo sapiens, UniProt P10721)	100%
Epidermal growth factor receptor (EGFR, Homo sapiens, UniProt P00533, del752-759)	100%
Homeodomain-interacting protein kinase 1 (HIPK1, Homo sapiens, UniProt Q86Z02)	97%
Casein kinase I isoform alpha (CSNK1A1, Homo sapiens, UniProt P48729)	84%
Mast/stem cell growth factor receptor Kit (KIT, Homo sapiens, UniProt P10721, V559D/V654A)	87%
Mast/stem cell growth factor receptor Kit (KIT, Homo sapiens, UniProt P10721, T670I/V559D)	100%
Mast/stem cell growth factor receptor Kit (KIT, Homo sapiens, UniProt P10721, L576P)	100%
Ribosomal protein S6 kinase alpha-2, C-terminal kinase domain (RPS6KA2, Homo sapiens, UniProt Q15349)	100%
Cyclin-dependent kinase-like 5 (CDKL5, Homo sapiens, UniProt O76039)	100%

Sample 3 — target: MAFG, bZIP domain (human); technique: DHFR protein complementation; sample: yeast; relative to: wild-type JUN-FOS pair; direction: higher = stronger binding
Notes: single substitutions, most at no-binding floor
Starting sequence: JUN, bZIP domain (human); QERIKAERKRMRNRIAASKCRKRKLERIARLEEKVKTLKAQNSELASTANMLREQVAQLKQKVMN; partner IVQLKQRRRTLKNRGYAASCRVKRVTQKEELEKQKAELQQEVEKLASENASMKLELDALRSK
Variant	binding fitness
L31P	-1.49 natural log
L52K	-1.36 natural log
E44F	-1.45 natural log
L52S	-1.43 natural log
A49W	-1.44 natural log
A29Y	-1.42 natural log
Q41T	-1.5 natural log
E33N	-1.57 natural log

Sample 4 — technique: universal PBM; molecule type: double-stranded DNA, one strand shown; sample: in vitro; concentration: 600 nM; direction: higher = stronger binding
Target: Sal-like protein 4, full length isoform A (SALL4, Homo sapiens, UniProt Q9UJQ4, residues 1-1053)
Chain of UniProt Q9UJQ4 (whole entry, looked up): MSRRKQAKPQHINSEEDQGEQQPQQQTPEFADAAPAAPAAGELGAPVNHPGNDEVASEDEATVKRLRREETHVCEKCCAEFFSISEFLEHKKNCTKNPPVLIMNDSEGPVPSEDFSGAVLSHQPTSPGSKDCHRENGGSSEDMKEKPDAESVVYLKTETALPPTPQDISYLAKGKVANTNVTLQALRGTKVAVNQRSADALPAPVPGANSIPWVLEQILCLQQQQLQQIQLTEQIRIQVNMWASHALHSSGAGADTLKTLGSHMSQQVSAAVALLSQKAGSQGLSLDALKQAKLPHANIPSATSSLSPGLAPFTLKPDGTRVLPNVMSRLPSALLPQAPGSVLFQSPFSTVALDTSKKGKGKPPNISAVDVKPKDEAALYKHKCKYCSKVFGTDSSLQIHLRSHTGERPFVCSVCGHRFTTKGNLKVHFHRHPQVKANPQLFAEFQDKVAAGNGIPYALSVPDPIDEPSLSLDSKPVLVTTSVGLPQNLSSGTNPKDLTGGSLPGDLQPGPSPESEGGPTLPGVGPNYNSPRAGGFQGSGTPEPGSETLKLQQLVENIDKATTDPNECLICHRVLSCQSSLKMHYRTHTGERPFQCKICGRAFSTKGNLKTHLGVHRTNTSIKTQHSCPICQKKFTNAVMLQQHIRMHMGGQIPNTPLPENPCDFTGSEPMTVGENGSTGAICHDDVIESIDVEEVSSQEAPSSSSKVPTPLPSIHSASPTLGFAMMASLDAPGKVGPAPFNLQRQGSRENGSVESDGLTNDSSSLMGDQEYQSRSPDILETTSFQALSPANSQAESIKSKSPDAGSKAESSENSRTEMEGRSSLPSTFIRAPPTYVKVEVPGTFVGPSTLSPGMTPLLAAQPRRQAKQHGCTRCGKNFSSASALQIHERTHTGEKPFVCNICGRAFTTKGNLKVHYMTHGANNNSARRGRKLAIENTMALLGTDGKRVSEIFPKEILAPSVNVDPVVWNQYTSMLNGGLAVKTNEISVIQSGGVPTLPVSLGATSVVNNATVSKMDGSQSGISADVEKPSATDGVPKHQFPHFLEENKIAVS
Notes: 8-mer, flanks averaged, mean of replicates
Strand	E-score
AGGCGGAT	-0.0768
GATGGTAA	0.0916
CTCATCGA	-0.0723
ATAGGGCG	-0.0491
CGAGTCGA	-0.111
CGAAGAAG	-0.0402
CAATCCCA	-0.0977
GACTCGCA	-0.0329

A few entries again (sample 1):
Compound	remaining activity [%]
OCC(O)CCON=C1C(c2c(O)[nH]c3ccccc23)=Nc2ccccc21 (stereo not shown)	30.5
Nc1[nH]nc2nc3ccccc3nc12	92
Cn1c2ccccc2c2c3c(c4c5ccccc5n(CCC#N)c4c21)CNC3=O	26.7
Cc1ccc(NC(=O)c2ccc(CN3CCN(C)CC3)cc2)cc1Nc1nc(-c2cccnc2)cs1	98.9
CC(C)[C@H](CO)Nc1nc(Nc2cc(N)cc(Cl)c2)c2ncn(C(C)C)c2n1	63.6
